Measurements pooled from the literature.
Every numbered part comes from another study and shows a few of its results, in no order. Several values in a cell are separate wells, animals, samples, runs or records.

Series 1
Structure (SMILES): C[C@@H]1CN(c2ccc(-c3cc(C(=O)NCCOCCOCCOCCOCCNC(=O)/C=C/c4[nH]cc(C(=O)N[C@@H](CC(N)=O)c5ccc(F)c(Cl)c5)c4-c4ccc(Cl)cc4F)ccc3F)cc2NC(=O)c2c[nH]c(=O)cc2C(F)(F)F)C[C@H](C)N1C
Read-out: thermal unfolding
Method: differential scanning fluorimetry
Tested at: 5.5 µM
Reading: higher = more unfolded
Quantity: SYPRO Orange fluorescence
WDR5: WD repeat-containing protein 5 (WDR5, Homo sapiens, UniProt P61964)
DCAF1: DDB1- and CUL4-associated factor 1 (DCAF1, Homo sapiens, UniProt Q9Y4B6)
UniProt Q9Y4B6, sequence (whole entry, looked up): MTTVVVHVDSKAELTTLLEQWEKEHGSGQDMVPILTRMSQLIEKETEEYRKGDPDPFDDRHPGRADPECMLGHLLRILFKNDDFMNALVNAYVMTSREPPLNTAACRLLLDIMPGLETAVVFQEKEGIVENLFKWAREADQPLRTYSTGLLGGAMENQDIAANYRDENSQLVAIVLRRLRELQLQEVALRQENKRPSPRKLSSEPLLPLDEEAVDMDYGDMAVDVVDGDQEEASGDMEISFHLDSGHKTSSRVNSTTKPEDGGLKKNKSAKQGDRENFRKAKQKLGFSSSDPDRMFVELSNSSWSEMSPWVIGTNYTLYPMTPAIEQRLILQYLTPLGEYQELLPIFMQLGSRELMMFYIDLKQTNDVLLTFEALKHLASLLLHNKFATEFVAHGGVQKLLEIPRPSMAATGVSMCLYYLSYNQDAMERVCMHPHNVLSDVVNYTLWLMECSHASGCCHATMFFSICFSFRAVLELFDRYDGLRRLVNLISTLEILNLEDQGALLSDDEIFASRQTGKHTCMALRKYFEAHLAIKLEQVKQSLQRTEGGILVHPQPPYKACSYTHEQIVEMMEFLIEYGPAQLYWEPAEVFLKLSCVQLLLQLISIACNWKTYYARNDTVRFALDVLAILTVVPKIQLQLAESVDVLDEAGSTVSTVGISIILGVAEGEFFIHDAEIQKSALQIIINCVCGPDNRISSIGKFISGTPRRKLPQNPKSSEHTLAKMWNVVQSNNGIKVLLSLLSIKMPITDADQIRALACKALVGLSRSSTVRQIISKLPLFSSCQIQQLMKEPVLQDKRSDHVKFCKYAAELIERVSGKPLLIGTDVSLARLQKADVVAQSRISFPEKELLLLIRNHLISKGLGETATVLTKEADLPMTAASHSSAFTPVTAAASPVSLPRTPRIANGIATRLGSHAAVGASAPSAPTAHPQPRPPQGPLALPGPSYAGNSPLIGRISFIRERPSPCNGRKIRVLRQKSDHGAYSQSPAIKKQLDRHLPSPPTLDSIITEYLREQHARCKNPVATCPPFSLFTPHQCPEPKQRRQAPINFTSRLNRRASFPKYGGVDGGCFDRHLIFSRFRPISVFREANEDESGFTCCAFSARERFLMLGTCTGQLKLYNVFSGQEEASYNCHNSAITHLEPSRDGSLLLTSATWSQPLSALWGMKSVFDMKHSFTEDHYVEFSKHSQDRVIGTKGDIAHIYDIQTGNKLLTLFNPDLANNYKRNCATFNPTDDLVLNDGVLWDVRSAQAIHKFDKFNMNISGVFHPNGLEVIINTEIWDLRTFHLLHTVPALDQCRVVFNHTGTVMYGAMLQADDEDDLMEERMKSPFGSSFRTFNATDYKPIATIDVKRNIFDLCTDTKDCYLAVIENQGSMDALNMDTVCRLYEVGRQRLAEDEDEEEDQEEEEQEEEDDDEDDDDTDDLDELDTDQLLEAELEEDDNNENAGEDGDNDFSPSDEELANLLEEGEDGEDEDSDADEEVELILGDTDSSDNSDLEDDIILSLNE
WDR5; 43.8 °C: 15100 a.u.
WDR5; 71.61 °C: 18700 a.u.
WDR5; 39.6 °C: 13900 a.u.
DCAF1; 64.21 °C: 57300 a.u.
WDR5; 71.81 °C: 19100 a.u.
WDR5; 66.61 °C: 14000 a.u.
DCAF1; 73.61 °C: 51600 a.u.
DCAF1; 88.61 °C: 36500 a.u.
DCAF1; 33.8 °C: 9870 a.u.
DCAF1; 67.01 °C: 58900 a.u.
DCAF1; 82.41 °C: 42700 a.u.

Series 2
Structure (SMILES): C=CC(=O)N1CCN(c2nc(OC[C@@H]3CCCN3C)nc3c2CCN(c2cccc4cccc(C)c24)C3)C[C@@H]1CC#N
Read-out: binding
Mode: competitor
Method: NanoBRET
Cells: HEK293
Quantity: normalized BRET
HRAS: GTPase HRas (HRAS, Homo sapiens, UniProt P01112)
KRAS G12D: GTPase KRas (KRAS, Homo sapiens, UniProt P01116, G12D)
KRAS Q61H: GTPase KRas (KRAS, Homo sapiens, UniProt P01116, Q61H)
HRAS; 611 pM: 104%
HRAS; 625 nM: 118%
KRAS G12D; 9.77 nM: 118%
HRAS; 9.14 nM: 92.5% and 98.8%
KRAS Q61H; 247 nM: 71.5% and 80.1% and 65.4%
KRAS G12D; 247 nM: 88.9% and 84.7%
HRAS; 3.05 nM: 99.9% and 94.9%
HRAS; 2.5 µM: 116%
KRAS G12D; 2.5 µM: 83.7%
KRAS Q61H; 20 µM: 11.7% and 15.5% and 20.4%

Series 3
Structure (SMILES): Cc1ncc(-c2cc3c(C#N)c(-c4c(C)ccc(O)c4C)cnc3[nH]2)cn1
Target: Membrane-associated tyrosine- and threonine-specific cdc2-inhibitory kinase (PKMYT1, Homo sapiens, UniProt Q99640)
Quantity: inhibition
Target sequence (Q99640 1-499): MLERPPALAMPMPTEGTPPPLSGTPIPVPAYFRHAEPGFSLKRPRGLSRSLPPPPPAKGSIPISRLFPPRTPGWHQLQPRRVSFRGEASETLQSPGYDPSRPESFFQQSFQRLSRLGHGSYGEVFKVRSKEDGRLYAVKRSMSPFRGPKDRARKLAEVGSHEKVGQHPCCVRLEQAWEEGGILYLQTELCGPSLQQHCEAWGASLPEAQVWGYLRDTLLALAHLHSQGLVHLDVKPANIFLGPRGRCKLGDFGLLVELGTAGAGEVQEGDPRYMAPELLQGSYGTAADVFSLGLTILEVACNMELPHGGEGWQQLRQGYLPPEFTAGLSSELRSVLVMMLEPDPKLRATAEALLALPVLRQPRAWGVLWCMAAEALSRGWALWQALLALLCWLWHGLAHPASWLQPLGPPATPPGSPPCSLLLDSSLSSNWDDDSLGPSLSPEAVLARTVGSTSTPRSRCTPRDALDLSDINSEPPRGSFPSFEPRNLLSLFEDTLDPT
cell-free assay, TR-FRET; 4.57 nM: 83%
0.00457 µM: 83.1%
0.00152 µM: 48.2%
0.000508 µM: 4.73%
10 µM: 104%
cell-free assay, TR-FRET; 10 µM: 105%
1.111 µM: 100%
cell-free assay, TR-FRET; 0.1235 µM: 99.1%

Series 4
Target: E3 ubiquitin-protein ligase NEDD4, HECT domain (Homo sapiens, UniProt P46934)
Read-out: enzyme activity
Mode: inhibitor
Method: Ub-TR-FRET
Medium: HECT domain
Tested at: 1.235 µM
Reading: higher = more chain formation
Quantity: ubiquitin chain formation AUC
Target sequence (P46934 938-1319, limits assumed): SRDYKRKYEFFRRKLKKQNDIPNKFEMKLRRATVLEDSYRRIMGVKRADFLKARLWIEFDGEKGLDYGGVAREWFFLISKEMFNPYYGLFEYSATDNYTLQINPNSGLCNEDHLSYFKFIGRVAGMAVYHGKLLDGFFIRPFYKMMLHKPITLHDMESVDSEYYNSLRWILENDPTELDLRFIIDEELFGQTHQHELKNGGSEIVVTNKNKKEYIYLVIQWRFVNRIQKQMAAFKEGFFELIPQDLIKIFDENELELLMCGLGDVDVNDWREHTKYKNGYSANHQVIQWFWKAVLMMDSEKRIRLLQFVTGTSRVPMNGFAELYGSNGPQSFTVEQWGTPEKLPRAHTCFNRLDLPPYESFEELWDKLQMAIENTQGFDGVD
CCOC(=O)/C=C/CN(CC)CCCCN1c2ccccc2CCc2ccc(Cl)cc21.O=C(O)/C=C\C(=O)O: 70900 a.u. and 58900 a.u. and 69500 a.u. and 59700 a.u. and 69900 a.u.
CCOC(=O)/C=C/CN(CCCCN1c2ccccc2CCc2ccc(Cl)cc21)C(C)C.O=C(O)/C=C\C(=O)O: 60100 a.u. and 59800 a.u. and 60900 a.u. and 59400 a.u. and 58500 a.u.
CCONC(=O)/C=C/CNCCCCN1c2ccccc2CCc2ccc(Cl)cc21.O=C(O)/C=C\C(=O)O: 13700 a.u. and 7770 a.u. and 15300 a.u. and 8050 a.u. and 14300 a.u. and 8180 a.u.
CCOC(=O)/C=C/CNCCCCN1c2ccccc2C(=O)N(C)c2ccc(Cl)cc21.O=C(O)/C=C\C(=O)O: 70400 a.u. and 69000 a.u. and 69500 a.u.
CNCCCN1c2ccccc2CCc2ccc(Cl)cc21: 142000 a.u. and 140000 a.u. and 144000 a.u.
CNC(=O)/C=C/CNCCCCN1c2ccccc2CCc2ccc(Cl)cc21.Cl: 67200 a.u. and 84900 a.u. and 83600 a.u. and 81400 a.u. and 68000 a.u. and 67400 a.u.
CCOC(=O)/C=C/CNCCCCN1c2cc(Cl)ccc2CCc2cnn(C)c21.O=C(O)/C=C\C(=O)O: 20200 a.u. and 7400 a.u. and 7610 a.u. and 8260 a.u. and 20600 a.u. and 20000 a.u.
CC(C)ONC(=O)/C=C/CNCCCCN1c2ccccc2CCc2ccc(Cl)cc21.O=C(O)/C=C\C(=O)O: 19200 a.u. and 18800 a.u. and 18600 a.u. and 24700 a.u. and 23400 a.u.
COC(=O)CCCNCCCN1c2ccccc2CCc2ccc(Cl)cc21.COC(=O)CCCNCCCN1c2ccccc2CCc2ccc(Cl)cc21.O=C(O)/C=C/C(=O)O: 129000 a.u. and 128000 a.u.
N#C/C=C/CNCCCCN1c2ccccc2CCc2ccc(Cl)cc21.O=C(O)/C=C\C(=O)O: 20600 a.u. and 13300 a.u. and 13000 a.u. and 14100 a.u. and 23100 a.u. and 14000 a.u.

A few entries again (series 4):
CCOC(=O)/C=C/CNCCCCN1c2cc(Cl)ccc2CCc2cnn(C)c21.O=C(O)/C=C\C(=O)O: 20200 a.u. and 7400 a.u. and 7610 a.u. and 8260 a.u. and 20600 a.u. and 20000 a.u.
CC(C)ONC(=O)/C=C/CNCCCCN1c2ccccc2CCc2ccc(Cl)cc21.O=C(O)/C=C\C(=O)O: 19200 a.u. and 18800 a.u. and 18600 a.u. and 24700 a.u. and 23400 a.u.
N#C/C=C/CNCCCCN1c2ccccc2CCc2ccc(Cl)cc21.O=C(O)/C=C\C(=O)O: 20600 a.u. and 13300 a.u. and 13000 a.u. and 14100 a.u. and 23100 a.u. and 14000 a.u.
CCOC(=O)/C=C/CN(CC)CCCCN1c2ccccc2CCc2ccc(Cl)cc21.O=C(O)/C=C\C(=O)O: 70900 a.u. and 58900 a.u. and 69500 a.u. and 59700 a.u. and 69900 a.u.
